{"data": "Published values gathered from unrelated publications", "note": "Each line is one published result; not all experiments were run side by side. “And” joins repeats or separate records; there may be more than shown. ± marks the error that the study gave."}
{"SMILES": "CNS(=O)(=O)Nc1nccc(Cc2c(C)c3ccc(Oc4ncccc4F)cc3oc2=O)c1F", "cell line": "Pfeiffer", "assay": "cell viability, CellTiter-Glo", "conditions": "7 days", "endpoint": "IC50", "value": "> 1 µM"}
{"SMILES": "CC12CCCC(n3cc(C(N)=O)nn3)(C1)C1CC(C)(C)C1CC2 (centres unmarked)", "cell line": "HT-29", "assay": "cell growth or viability, CCK-8", "conditions": "10 µM", "endpoint": "inhibition", "value": "< 50%"}
{"SMILES": "CCCc1cc(=O)oc2cc(O)c(O)cc12", "cell line": "COS-7 (untransfected)", "conditions": "500 µM, unit not given", "scale": "baseline: 3 µM ionomycin", "endpoint": "calcium mobilisation signal", "value": "0.87 ± 1.22"}
{"SMILES": "Cn1ncc2cc(-c3cncc(Cl)c3N3CCC4(CCNC4=O)CC3)ccc21", "cell line": "LS174T", "assay": "gene expression, microarray, refers to: HOXC4 mRNA", "conditions": "concentration not given, 4 h", "scale": "baseline: untreated cells", "endpoint": "log2 fold change", "value": 1.19}
{"SMILES": "O=S(=O)(N[C@H]1CCO[C@@H](C2c3ccc(F)cc3CCc3cc(F)ccc32)C1)c1ccc(OC(F)(F)F)cc1", "cell line": "D341", "assay": "immunoblot", "conditions": "concentration not given", "endpoint": "I2PP2A protein level", "value": "increased"}
{"SMILES": "CN1CCCNC(=O)c2cccc(c2)C(=O)NCCCN(C)CCCNc2cccc3c2C(=O)c2cccc(c2C3=O)NCCC1", "cell line": "SAS", "assay": "RNA-Seq, refers to: PRPSAP1 mRNA", "conditions": "1 µM, 6 h", "scale": "baseline: untreated cells", "endpoint": "log2 fold change", "value": -0.86}
{"SMILES": "C[C@@H]1CC[C@@H]([C@@](O)(CNCc2cccc(F)c2)COCc2ccccc2)[C@H](OCc2ccccc2)C1", "cell line": "HeLa", "assay": "cell growth or viability, MTT", "conditions": "30 µM, 72 h", "endpoint": "inhibition", "value": "98.1%"}
{"SMILES": "CC(Br)C(=O)NC12CCCC(C)(CCC3C1CC3(C)C)C2 (centres unmarked)", "cell line": "HT-29", "assay": "cell growth or viability, CCK-8", "conditions": "300 µM", "endpoint": "inhibition", "value": "96.6%"}
{"SMILES": "COC1CCN(C(=O)/C=C/c2nn(Cc3cccc(C(F)(F)F)c3)c3nc(NCc4ccccc4)ncc23)CC1", "cell line": "OE33", "assay": "cell growth or viability, resazurin", "conditions": "5 days", "endpoint": "EC50", "value": "> 30 µM"}
{"SMILES": "CC(=O)Oc1ccccc1C(=O)[Se]CC(=O)Nc1cccc(C(F)(F)F)c1", "cell line": "NCI60 NSCLC subpanel mean", "assay": "cell growth", "endpoint": "TGI", "value": "4.39 µM"}
{"SMILES": "CCC(=CCc1c(O)cc2c(c1O)C(=O)CC(c1ccc(OC)cc1O)O2)CC (centres unmarked)", "cell line": "HeLa", "assay": "cell growth or viability, MTT", "conditions": "25 µM, 48 h", "endpoint": "inhibition", "value": "73.1%"}
{"SMILES": "O=CCNCCOn1c(=O)n(OCCNCCO)c(=O)n(OCCNCCOn2c(=O)n(OCCNCCO)c(=O)n(OCCNCCO)c2=O)c1=O", "cell line": "A549", "assay": "cell growth or viability, MTT", "conditions": "200 µg/mL, 48 h", "endpoint": "viability", "value": "13%"}
{"SMILES": "Cc1ncsc1-c1ccc(C(C)NC(=O)C2CC(O)CN2C(=O)C(NC(=O)CCCCCCCCCCN2CCCC(Nc3ncc(Cl)c(Nc4ccccc4S(=O)(=O)C(C)C)n3)C2)C(C)(C)C)cc1 (centres unmarked)", "cell line": "22Rv1", "assay": "RNA-seq, refers to: SDCBP2-AS1", "conditions": "concentration not given", "scale": "baseline: DMSO", "endpoint": "log2 fold change", "value": -1.24}
{"SMILES": "CC[C@H](C)[C@H](NC(=O)[C@H](CCC(=O)O)NC(=O)[C@H](Cc1ccc(I)cc1)NC(C)=O)C(=O)N[C@@H](CC(=O)O)C(=O)COC(=O)c1c(C)cccc1C", "cell line": "THP-1 cells, LPS-primed", "assay": "pyroptosis, LDH release", "conditions": "25 µM, LPS 1 µg/mL, 4 h, together with: nigericin 5 µM, 2 h", "endpoint": "cell lysis", "value": "60.3% and 76%"}
{"SMILES": "[BH3-][P+]1(c2ccccc2)CCCCC1", "cell line": "HaCaT", "assay": "trypan blue", "conditions": "IC50, 72 h", "scale": "baseline: untreated", "endpoint": "reduction of cell number", "value": "10 to 20%"}
{"SMILES": "CCC(=CCc1c(O)cc2c(c1O)C(=O)CC(c1ccccc1O)O2)CC (centres unmarked)", "cell line": "HeLa", "assay": "cell growth or viability, MTT", "conditions": "1.875 µM, 48 h", "endpoint": "inhibition", "value": "3.53%"}
{"SMILES": "CCOc1cncc(-c2ccc(NC(=O)C3(c4ccnc(NS(=O)(=O)C5CC5)n4)CCOCC3)nc2)n1", "cell line": "MINO", "assay": "cell growth or viability, ATP luminescence", "conditions": "72 h", "endpoint": "IC50", "value": "1.68 µM"}
{"note": "A few entries again:"}
{"SMILES": "CCC(=CCc1c(O)cc2c(c1O)C(=O)CC(c1ccccc1O)O2)CC (centres unmarked)", "cell line": "HeLa", "assay": "cell growth or viability, MTT", "conditions": "1.875 µM, 48 h", "endpoint": "inhibition", "value": "3.53%"}
